Measured values gathered from unrelated publications.
A part holds a random share of what one study measured. Positions count from the first letter of the parent shown.

Sample 1
Target: Fragile X messenger ribonucleoprotein 1, C-terminal low-complexity region (Fmr1, Mus musculus, UniProt P35922)
Method: RNA Bind-n-Seq
Molecule type: RNA
Medium: in vitro
Tested at: 200 nM
Setting: whole 134-nt RNA, ends assumed
Together with: 150 mM LiCl
Reference: input library
Reading: higher = stronger binding
All molecules: 7-deaza-guanosine replaces G
Shared flanks, not repeated: GGGAGUUCUACAGUCCGACGAUC … UGGAAUUCUCGGGUGUCAAGG
`UUAAGUGUAUUGGAGCCCCAAGUUCUCAAUUAUUUGAGCCUCCGGGCGACAGAGCAAGAAAAGGUGAGUGGAUAGCGCAGGCAUAUUGGU` gave a log2 enrichment of -0.801.
`CCUCAAGUCCUGUGCUACACAUCGUAUGUACCGAAUCGGGGAGGAGGGGAGGGAAAGUAUUAUGUUACGCCGUUCGGAUCUGCACUUCCA` gave a log2 enrichment of -0.548.
`UGCUUGUGUUUCUGACAGAUUCACUGCCUUCUGAGGACUUGGAUCCUGCCGAUCCCCCGAUCUCGGUAACUGUUGGCCUGAUCUGGCUGU` gave a log2 enrichment of 0.602.
`ACCAUGCAGGUGGGCAUCUUUGGGAAGUGGGGCAAGGGGGGGAUAGGGAGGGGGGUAACACUUUGGGAACAGGUGGUCGCAGGUCGUUUC` gave a log2 enrichment of 1.12.
For `UCCUGUGCUACACAUCGUAUGUACCGAAUCAAACCCCCCCAAACCCCCCCAAACCCAAAAAAGUAUUAUGUUACGCCGUUCGGAUCUGCA`, the log2 enrichment was 1.03.

Sample 2
Target: Interferon regulatory factor 5, full length, phosphomimetic (IRF5, Homo sapiens, UniProt Q13568-2, residues 1-514, S451D/S453D/S456D/S462D)
Method: protein-binding microarray
Molecule type: double-stranded DNA, one strand shown
Medium: in vitro
Tested at: 940 nM top
Setting: 60-bp whole probe
Together with: salmon DNA 0.4 mg/ml
Reference: random background probes
Reading: higher = stronger binding
Shared flanks, not repeated: GCCTAGCAC … GTCTTGATTCGCTTGACGCTGCTG
For `GACGAAATCGGGTTTCGAGACGTGCTA`, “fitted relative affinity” read 2.14 z-score.
Under “fitted relative affinity”, `GGGTGTGTGAGTGTGTGTGCGTGCTAG` is recorded as 0.141 z-score.
`TCATCATTTTTTTTCATACTGTGCTAG`: “fitted relative affinity” 1.5 z-score.
For `TATTATATATTTATGTATACGTGCTAG`, “fitted relative affinity” read 0.464 z-score.
Under “fitted relative affinity”, `GTAGGTATCGGTTTCGGTTAGTGCTAG` is recorded as 12 z-score.
For `GACGGTTTCCTTCTCCTGACGTGCTAG`, “fitted relative affinity” read 1.73 z-score.
Under “fitted relative affinity”, `TTAGGTTTCGACTTTCAGTTAGTGCTA` is recorded as 8.82 z-score.
`GACGCACTGGGGACTGGAGACGTGCTA`: “fitted relative affinity” -0.138 z-score.
For `TTAGCACTGAGTATCGATTAGTGCTAG`, “fitted relative affinity” read 4.1 z-score.
`GACGGTTGCGGGACTGGGGACGTGCTA`: “fitted relative affinity” 0.101 z-score.
`TTAGGACTAGGACTGGGTTAGTGCTAG` — result for “fitted relative affinity”: -0.854 z-score.
For `TTAGATATCGGTATCGGTTAGTGCTAG`, “fitted relative affinity” read 5.44 z-score.
Under “fitted relative affinity”, `GAACATACTGATTTCCACTTGTGCTAG` is recorded as 0.695 z-score.
`GACCGTTTCGGGTTTCGGGACGTGCTA`: “fitted relative affinity” 5.01 z-score.
Under “fitted relative affinity”, `TCAGTTTTGAGTTTTCCACTGTGCTAG` is recorded as 0.559 z-score.
`TTAGGTTCCGCTTTCGGTTAGTGCTAG` — result for “fitted relative affinity”: 4.56 z-score.
`GACGGGCTGGGACTGGGGACGTGCTAG`: “fitted relative affinity” -0.297 z-score.
`TCAAAAATCAAGTCTGGGACTGTGCTA` — result for “fitted relative affinity”: -0.488 z-score.

Sample 3
Target: ABI1, truncated, D143A, DHFR fusion (Arabidopsis thaliana)
Method: DHFR PCA, deep sequencing
Medium: yeast
Setting: methotrexate growth selection, single substitutions
Together with: (+)-ABA 4.8 µM
Reference: wild-type fitted maximum
Reading: higher = stronger binding
Starting sequence: PYL1, truncated, DHFR fusion (Arabidopsis thaliana); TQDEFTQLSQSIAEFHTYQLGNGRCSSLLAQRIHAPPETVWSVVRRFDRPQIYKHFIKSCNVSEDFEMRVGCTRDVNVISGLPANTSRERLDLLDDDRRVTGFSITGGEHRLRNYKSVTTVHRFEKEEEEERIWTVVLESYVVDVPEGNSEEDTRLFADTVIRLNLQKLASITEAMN; partner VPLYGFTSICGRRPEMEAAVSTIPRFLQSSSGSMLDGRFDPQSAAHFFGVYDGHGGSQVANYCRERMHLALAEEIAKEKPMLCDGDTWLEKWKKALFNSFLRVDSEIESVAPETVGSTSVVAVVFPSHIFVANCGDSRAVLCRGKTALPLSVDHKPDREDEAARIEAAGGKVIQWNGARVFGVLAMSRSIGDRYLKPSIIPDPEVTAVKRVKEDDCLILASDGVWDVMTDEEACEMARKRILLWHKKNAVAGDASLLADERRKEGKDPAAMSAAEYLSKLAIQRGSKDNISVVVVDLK
Under “relative binding score”, `V118S` is recorded as 1.09%.
For `R24E`, “relative binding score” read 62.6%.
`I79M`: “relative binding score” 51%.
`L93S`: “relative binding score” 21.6%.
`V143K` — result for “relative binding score”: -2.76%.
`H55T`: “relative binding score” 81.4%.
For `D97L`, “relative binding score” read 48.6%.
`N22Q` — result for “relative binding score”: 78.4%.
`N77Q` — result for “relative binding score”: 89.1%.
Under “relative binding score”, `R111A` is recorded as 3.47%.
`S59M`: “relative binding score” 24.3%.
Under “relative binding score”, `H16A` is recorded as -9.05%.
For `Q10K`, “relative binding score” read 75.8%.
For `R90M`, “relative binding score” read 37.4%.

Sample 4
Target: CCNA1, cyclin fold, Cln2 fusion (human)
Method: yeast growth competition, sequencing
Medium: yeast
Setting: weak parent motif
Reference: not given
Reading: higher = stronger binding
Starting sequence: RBL1 docking peptide (human); GSAKRRLFGEDPP; partner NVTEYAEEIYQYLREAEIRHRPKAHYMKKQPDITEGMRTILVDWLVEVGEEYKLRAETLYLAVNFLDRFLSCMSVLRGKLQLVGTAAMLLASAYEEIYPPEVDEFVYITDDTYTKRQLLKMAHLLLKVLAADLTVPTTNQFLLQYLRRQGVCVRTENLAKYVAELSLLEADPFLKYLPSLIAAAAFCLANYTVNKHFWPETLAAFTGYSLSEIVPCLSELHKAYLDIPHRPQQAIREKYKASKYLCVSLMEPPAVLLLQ
Under “normalised enrichment score”, `GYAKRRLFGEDPP [S2Y]` is recorded as 0.639.
For `GFAKRRLFGEDPP [S2F]`, “normalised enrichment score” read 0.259.
Under “normalised enrichment score”, `GSPKRRLFGEDPP [A3P]` is recorded as 0.25.
For `GSAKRRLFGEGPP [D11G]`, “normalised enrichment score” read 0.573.
For `GLAKRRLFGEDPP [S2L]`, “normalised enrichment score” read 0.471.
For `GSCKRRLFGEDPP [A3C]`, “normalised enrichment score” read 0.835.
Under “normalised enrichment score”, `GSAKRRLFGSDPP [E10S]` is recorded as 0.771.
`GSAKRRLFMEDPP [G9M]`: “normalised enrichment score” 0.429.
Under “normalised enrichment score”, `GSAKRRLFREDPP [G9R]` is recorded as 0.685.
For `GSAIRRLFGEDPP [K4I]`, “normalised enrichment score” read 0.227.
For `GSAKTRLFGEDPP [R5T]`, “normalised enrichment score” read 0.165.

Sample 5
Target: Sal-like protein 4, full length isoform A (SALL4, Homo sapiens, UniProt Q9UJQ4, residues 1-1053)
Chain of UniProt Q9UJQ4 (whole entry, looked up): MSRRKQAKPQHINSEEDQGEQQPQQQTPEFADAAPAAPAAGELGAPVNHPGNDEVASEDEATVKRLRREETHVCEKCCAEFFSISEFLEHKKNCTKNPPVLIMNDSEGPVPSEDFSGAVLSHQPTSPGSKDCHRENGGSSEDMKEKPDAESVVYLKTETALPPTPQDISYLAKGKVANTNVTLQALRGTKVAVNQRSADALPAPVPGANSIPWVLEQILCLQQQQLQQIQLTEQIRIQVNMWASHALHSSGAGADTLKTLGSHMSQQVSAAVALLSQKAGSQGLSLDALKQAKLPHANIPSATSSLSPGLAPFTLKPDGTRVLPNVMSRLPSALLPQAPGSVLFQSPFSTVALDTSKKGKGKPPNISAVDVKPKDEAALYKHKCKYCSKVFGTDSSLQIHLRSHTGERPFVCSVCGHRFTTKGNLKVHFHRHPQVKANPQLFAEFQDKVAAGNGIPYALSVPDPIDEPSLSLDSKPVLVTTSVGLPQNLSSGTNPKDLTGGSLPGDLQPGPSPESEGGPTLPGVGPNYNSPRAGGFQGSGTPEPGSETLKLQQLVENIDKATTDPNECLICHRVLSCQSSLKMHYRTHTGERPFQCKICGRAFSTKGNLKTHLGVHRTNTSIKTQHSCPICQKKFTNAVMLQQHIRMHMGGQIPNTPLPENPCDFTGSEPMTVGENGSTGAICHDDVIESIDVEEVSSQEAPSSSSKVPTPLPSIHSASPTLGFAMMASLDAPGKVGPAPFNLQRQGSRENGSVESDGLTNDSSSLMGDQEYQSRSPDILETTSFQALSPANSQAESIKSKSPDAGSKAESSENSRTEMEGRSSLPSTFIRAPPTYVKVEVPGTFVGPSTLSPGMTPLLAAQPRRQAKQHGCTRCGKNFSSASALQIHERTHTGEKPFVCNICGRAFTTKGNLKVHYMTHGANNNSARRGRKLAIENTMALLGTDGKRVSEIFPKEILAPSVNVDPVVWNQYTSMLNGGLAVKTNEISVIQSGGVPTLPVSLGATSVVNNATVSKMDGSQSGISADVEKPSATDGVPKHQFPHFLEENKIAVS
Method: universal PBM
Molecule type: double-stranded DNA, one strand shown
Medium: in vitro
Tested at: 600 nM
Setting: 8-mer, flanks averaged, mean of replicates
Reading: higher = stronger binding
The E-score of `GAAATAAC` is reported as 0.23.
For `GGCCTAGA`, the E-score was -0.0912.
With `CGGACGAA` the E-score was -0.0181.
`CATTGTTA` has an E-score of 0.225.
For `CGAAGACG`, the E-score was -0.271.
`AATTGACT` gave an E-score of 0.107.
`GTTGGGTA` has an E-score of -0.0513.
The E-score of `CCGCTCCC` is reported as -0.37.
`CACACCGG` has an E-score of -0.421.
The E-score of `ATGACTCC` is reported as -0.0968.
With `ATATTACC` the E-score was 0.384.
`GATAACAA` gave an E-score of 0.258.
With `CGCTCTCC` the E-score was -0.327.
For `ACAGTATC`, the E-score was 0.147.
With `AGGGGTCC` the E-score was -0.39.
For `CGCCTGTA`, the E-score was -0.107.
For `TACCTTCA`, the E-score was 0.122.
`ATTTAATC` gave an E-score of 0.288.
The E-score of `AAGGTTTA` is reported as 0.0619.
`TGGGTGAA` has an E-score of 0.256.

Sample 6
Target: Histone acetyltransferase KAT6A, both winged helices, GST fusion (KAT6A, Homo sapiens, UniProt Q92794, residues 1-181)
Method: protein binding microarray
Molecule type: double-stranded DNA, one strand shown
Medium: in vitro
Tested at: not given
Setting: 8-mer, flanks averaged, mean of 2 arrays, mostly near background
Reference: not given
Reading: higher = stronger binding
Construct (chain): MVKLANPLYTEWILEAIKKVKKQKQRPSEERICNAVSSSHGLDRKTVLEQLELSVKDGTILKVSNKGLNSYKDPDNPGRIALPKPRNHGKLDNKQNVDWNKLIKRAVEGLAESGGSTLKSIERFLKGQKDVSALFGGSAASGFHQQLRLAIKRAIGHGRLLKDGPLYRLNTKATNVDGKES
The E-score of `TATTTTAA` is reported as -0.0517.
`CCCCGTTA` gave an E-score of 0.045.
`GAAACGGC` gave an E-score of 0.264.
For `ATTAGAGC`, the E-score was -0.0213.
The E-score of `TCTCGTAA` is reported as 0.00402.
The E-score of `GCGGGCGA` is reported as 0.239.
For `GACCTGGC`, the E-score was -0.157.
`TCTTCGCA` gave an E-score of -0.113.
For `CGAGTCAA`, the E-score was -0.0759.
For `ACTCCCCA`, the E-score was -0.246.
`AACATCTT` gave an E-score of -0.0666.
`ATGGTTTA` gave an E-score of -0.0354.
For `CATCGGGC`, the E-score was 0.0654.
`TGCGGCCA` has an E-score of 0.0965.
With `CTGCTTGA` the E-score was -0.203.
For `CCTGTCGA`, the E-score was -0.0902.
`AGACTTGA` has an E-score of -0.232.
For `CCGGCGAC`, the E-score was 0.289.
`AGGTCCGA` has an E-score of -0.0293.

Some of these lines once more (sample 5):
With `CGCTCTCC` the E-score was -0.327.
For `ACAGTATC`, the E-score was 0.147.
With `AGGGGTCC` the E-score was -0.39.
For `CGCCTGTA`, the E-score was -0.107.
For `TACCTTCA`, the E-score was 0.122.
